Assay results from different studies.
A part holds a random share of what one study measured.
Sequence of UniProt P42336 (whole entry, unmodified, looked up): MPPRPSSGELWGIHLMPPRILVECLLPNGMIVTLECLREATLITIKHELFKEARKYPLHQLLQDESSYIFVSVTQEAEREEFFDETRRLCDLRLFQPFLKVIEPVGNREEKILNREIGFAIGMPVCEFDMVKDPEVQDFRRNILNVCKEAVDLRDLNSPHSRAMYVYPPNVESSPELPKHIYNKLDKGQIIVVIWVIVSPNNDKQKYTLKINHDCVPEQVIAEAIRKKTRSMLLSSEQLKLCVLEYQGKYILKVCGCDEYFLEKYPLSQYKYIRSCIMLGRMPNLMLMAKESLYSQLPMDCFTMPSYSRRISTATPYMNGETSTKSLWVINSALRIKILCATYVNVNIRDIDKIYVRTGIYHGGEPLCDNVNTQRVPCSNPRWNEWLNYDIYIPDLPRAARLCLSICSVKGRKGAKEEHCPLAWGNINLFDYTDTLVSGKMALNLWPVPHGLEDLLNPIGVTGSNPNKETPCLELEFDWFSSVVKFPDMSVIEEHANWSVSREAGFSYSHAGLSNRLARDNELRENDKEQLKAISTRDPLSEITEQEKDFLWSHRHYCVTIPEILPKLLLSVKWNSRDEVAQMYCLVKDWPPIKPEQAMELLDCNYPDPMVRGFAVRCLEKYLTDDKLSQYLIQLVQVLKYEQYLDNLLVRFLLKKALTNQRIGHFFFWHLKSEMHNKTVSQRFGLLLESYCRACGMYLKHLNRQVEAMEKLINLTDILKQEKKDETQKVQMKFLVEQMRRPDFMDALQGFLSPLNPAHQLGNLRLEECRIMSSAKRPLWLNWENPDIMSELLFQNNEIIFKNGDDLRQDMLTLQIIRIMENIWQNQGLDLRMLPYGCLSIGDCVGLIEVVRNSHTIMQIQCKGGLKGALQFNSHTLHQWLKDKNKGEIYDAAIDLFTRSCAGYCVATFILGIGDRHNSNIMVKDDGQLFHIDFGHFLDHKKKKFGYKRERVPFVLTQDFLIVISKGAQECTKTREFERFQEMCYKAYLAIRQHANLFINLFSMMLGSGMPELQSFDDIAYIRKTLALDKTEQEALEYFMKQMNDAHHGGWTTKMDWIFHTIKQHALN
Sequence of UniProt O15530 (whole entry, looked up): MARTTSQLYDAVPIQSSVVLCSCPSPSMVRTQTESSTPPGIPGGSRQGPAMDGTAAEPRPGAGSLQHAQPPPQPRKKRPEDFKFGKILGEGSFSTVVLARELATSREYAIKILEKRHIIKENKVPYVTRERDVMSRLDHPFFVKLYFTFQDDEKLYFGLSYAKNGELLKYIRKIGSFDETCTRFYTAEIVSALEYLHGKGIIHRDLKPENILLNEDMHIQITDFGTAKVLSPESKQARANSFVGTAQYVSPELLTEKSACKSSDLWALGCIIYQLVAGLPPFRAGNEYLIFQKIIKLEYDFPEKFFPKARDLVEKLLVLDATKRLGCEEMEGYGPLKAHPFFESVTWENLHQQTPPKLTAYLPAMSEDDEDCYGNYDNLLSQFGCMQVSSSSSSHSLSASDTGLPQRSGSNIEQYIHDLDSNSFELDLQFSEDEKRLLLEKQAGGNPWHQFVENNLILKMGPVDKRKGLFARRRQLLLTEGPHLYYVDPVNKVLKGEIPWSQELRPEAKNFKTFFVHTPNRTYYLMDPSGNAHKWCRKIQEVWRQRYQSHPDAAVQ
Sequence of UniProt Q16816 (whole entry, looked up): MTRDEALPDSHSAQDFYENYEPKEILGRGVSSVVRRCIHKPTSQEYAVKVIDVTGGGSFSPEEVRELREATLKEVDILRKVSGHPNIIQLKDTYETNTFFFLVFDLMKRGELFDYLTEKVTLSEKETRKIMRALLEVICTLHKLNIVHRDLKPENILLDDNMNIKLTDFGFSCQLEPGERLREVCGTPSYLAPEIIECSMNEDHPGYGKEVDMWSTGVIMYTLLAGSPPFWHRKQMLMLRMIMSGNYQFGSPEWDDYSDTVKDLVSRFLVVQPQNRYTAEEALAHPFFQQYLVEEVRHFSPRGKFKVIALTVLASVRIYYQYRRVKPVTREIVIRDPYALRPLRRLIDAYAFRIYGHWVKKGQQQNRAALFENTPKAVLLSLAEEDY
Sequence of UniProt Q8NEB9 (whole entry, looked up): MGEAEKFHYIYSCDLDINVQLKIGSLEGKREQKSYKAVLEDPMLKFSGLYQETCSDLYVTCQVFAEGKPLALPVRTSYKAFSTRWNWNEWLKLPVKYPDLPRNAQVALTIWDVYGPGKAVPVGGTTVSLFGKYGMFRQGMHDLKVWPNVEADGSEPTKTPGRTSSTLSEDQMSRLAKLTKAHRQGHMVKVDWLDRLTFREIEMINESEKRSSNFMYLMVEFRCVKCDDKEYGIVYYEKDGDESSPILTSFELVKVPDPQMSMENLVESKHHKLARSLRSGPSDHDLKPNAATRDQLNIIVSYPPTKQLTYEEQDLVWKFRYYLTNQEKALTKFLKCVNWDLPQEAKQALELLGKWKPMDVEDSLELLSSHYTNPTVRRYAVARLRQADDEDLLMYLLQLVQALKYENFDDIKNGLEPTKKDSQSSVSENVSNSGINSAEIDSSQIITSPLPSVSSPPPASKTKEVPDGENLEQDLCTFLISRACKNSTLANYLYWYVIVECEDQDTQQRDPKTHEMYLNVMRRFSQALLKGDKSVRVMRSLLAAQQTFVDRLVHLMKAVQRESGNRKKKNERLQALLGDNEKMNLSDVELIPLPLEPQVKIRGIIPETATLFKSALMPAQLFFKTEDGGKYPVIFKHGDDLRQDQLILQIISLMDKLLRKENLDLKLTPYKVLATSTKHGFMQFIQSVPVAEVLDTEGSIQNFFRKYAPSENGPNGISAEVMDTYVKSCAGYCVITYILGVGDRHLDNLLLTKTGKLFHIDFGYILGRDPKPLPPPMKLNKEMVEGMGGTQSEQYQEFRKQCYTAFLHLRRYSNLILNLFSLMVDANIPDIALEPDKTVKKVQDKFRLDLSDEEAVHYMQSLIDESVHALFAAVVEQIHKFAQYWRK
Sequence of UniProt Q00534 (whole entry, looked up): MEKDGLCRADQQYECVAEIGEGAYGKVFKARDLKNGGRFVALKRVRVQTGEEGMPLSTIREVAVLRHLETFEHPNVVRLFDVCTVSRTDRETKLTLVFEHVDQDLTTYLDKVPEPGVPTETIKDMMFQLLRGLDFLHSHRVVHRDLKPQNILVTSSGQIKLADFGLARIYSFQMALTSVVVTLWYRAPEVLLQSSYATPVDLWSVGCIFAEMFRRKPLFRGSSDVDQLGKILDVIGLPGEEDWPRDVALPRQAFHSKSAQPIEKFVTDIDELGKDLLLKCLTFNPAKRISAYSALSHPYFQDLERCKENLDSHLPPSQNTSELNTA
Sequence of UniProt P23458 (whole entry, looked up): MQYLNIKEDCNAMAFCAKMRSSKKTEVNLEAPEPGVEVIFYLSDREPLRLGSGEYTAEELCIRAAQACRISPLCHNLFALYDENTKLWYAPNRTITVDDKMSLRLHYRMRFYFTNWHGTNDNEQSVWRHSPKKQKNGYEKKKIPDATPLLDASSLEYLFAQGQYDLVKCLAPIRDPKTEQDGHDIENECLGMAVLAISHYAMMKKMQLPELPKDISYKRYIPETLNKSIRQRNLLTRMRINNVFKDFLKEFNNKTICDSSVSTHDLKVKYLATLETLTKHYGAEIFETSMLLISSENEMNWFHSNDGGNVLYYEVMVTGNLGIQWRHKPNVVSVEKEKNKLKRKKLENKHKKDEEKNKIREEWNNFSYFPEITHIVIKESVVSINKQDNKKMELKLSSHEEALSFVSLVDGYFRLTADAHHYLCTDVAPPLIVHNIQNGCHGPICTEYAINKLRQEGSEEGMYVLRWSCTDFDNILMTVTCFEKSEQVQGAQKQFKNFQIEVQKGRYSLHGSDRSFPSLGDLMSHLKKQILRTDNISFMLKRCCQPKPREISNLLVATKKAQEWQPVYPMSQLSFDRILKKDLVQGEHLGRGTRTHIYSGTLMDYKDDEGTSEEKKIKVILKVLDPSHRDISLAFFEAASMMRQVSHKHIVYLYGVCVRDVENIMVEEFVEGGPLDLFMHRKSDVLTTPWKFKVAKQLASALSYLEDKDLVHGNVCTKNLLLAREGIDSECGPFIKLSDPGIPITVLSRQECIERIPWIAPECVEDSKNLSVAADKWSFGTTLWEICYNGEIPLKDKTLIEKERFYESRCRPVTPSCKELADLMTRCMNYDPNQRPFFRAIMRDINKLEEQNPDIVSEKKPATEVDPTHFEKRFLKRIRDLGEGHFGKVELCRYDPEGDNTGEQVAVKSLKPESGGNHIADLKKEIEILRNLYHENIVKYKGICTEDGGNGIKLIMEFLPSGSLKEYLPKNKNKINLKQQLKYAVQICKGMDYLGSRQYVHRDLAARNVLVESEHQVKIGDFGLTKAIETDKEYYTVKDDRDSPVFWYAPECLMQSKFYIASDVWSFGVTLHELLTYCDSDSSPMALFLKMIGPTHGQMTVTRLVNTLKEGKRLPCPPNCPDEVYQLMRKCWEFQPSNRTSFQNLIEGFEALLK
Sequence of UniProt O43781 (whole entry, looked up): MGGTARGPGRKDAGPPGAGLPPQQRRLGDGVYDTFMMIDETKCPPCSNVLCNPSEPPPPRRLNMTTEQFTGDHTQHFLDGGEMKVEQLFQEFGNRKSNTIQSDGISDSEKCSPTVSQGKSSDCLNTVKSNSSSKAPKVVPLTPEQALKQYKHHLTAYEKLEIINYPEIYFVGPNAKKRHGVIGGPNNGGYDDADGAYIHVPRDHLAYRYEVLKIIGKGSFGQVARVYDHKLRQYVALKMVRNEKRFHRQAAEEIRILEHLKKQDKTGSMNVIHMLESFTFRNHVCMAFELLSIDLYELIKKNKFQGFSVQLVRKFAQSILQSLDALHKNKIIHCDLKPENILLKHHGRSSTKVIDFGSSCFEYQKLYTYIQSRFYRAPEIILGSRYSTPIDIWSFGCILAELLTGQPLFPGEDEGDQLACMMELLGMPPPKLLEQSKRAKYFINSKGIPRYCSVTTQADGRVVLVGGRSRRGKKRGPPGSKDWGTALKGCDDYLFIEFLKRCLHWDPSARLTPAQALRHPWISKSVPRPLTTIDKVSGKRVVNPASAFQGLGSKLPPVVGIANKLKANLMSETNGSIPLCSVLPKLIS

Set 1
Compound: Cc1noc([C@H]2C[C@@H](c3ccc(C(F)(F)F)cc3)CN(C(=O)N3CCS(=O)(=O)C3)C2)n1
Read-out: cell-free assay
Technique: competition with immobilised ligand
Concentration: 1 µM
target | remaining binding [%]
PIK3CA (Homo sapiens, UniProt P42336) | 99
NEK9 (Homo sapiens, UniProt Q8TD19) | 100
MAP2K3 (Homo sapiens, UniProt P46734) | 98
MAP3K2 (Homo sapiens, UniProt Q9Y2U5) | 99
PRKCH (Homo sapiens, UniProt P24723) | 95
PRKAA2 (Homo sapiens, UniProt P54646) | 66
ITK (Homo sapiens, UniProt Q08881) | 100
GRK3 (Homo sapiens, UniProt P35626) | 100
PRKD2 (Homo sapiens, UniProt Q9BZL6) | 100
FYN (Homo sapiens, UniProt P06241) | 94
Tyrosine-protein kinase JAK2, JH1 (JAK2, Homo sapiens, UniProt O60674) | 100
PDPK1 (Homo sapiens, UniProt O15530) | 95
PAK3 (Homo sapiens, UniProt O75914) | 100
PHKG1 (Homo sapiens, UniProt Q16816) | 100
OXSR1 (Homo sapiens, UniProt O95747) | 89
Tyrosine-protein kinase JAK1, JH1 (JAK1, Homo sapiens, UniProt P23458) | 98
ACVR1 (Homo sapiens, UniProt Q04771) | 100
Non-receptor tyrosine-protein kinase TYK2, JH2 (TYK2, Homo sapiens, UniProt P29597) | 100
PIK3CA (Homo sapiens, UniProt P42336, C420R) | 84
GRK7 (Homo sapiens, UniProt Q8WTQ7) | 100
Ribosomal protein S6 kinase alpha-1, N-terminal kinase domain (RPS6KA1, Homo sapiens, UniProt Q15418) | 87
MAST1 (Homo sapiens, UniProt Q9Y2H9) | 100
TAOK2 (Homo sapiens, UniProt Q9UL54) | 76
TGFBR2 (Homo sapiens, UniProt P37173) | 100
STK33 (Homo sapiens, UniProt Q9BYT3) | 100

Set 2
SMILES: COc1ccc2[nH]c3c4[nH]c5ccc(OC)cc5c4c4c(c3c2c1)C(=O)NC4=O
Read-out: binding
Concentration: 1 µM
target | technique | remaining binding [%]
MET (Homo sapiens, UniProt P08581, Y1235D) |  | 76
CDKL2 (Homo sapiens, UniProt Q92772) | competition with immobilised ligand | 92
CRK2 (Plasmodium falciparum, UniProt P61075) |  | 82
PIK3C3 (Homo sapiens, UniProt Q8NEB9) |  | 80
PRKACB (Homo sapiens, UniProt P22694) | competition with immobilised ligand | 89
MAP3K20 (Homo sapiens, UniProt Q9NYL2) | competition with immobilised ligand | 100
PIK3CA (Homo sapiens, UniProt P42336, H1047L) |  | 74
FES (Homo sapiens, UniProt P07332) |  | 86

Set 3
Target: Diamine acetyltransferase 1 (Homo sapiens, UniProt P21673)
Action: inhibitor
Concentration: 10 µM
Baseline: control
Target sequence (P21673 1-171): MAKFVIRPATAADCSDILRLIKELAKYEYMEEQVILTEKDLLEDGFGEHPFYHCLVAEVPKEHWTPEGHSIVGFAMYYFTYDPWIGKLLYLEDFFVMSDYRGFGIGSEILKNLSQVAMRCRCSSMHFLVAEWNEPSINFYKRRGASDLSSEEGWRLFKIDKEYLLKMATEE
Structure (SMILES) | remaining activity
COc1ccc(C[C@@H]2c3cc(Oc4cc(C[C@@H]5c6cc(O)c(OC)cc6CCN5C)ccc4O)c(OC)cc3CCN2C)cc1 | 102%
COc1ccc(-c2cc(=O)c3c(O)cc(O[C@@H]4O[C@H](CO[C@@H]5O[C@@H](C)[C@H](O)[C@@H](O)[C@H]5O)[C@@H](O)[C@H](O)[C@H]4O)cc3o2)cc1 | 111%
O=c1c(-c2ccc(O)cc2)coc2cc(O[C@@H]3O[C@H](CO)[C@@H](O)[C@H](O)[C@H]3O)ccc12 | 76%
O=C(O)CCc1ccc(O)c(O)c1 | 78.9%
CCCCC1OC(=O)c2ccccc21 (stereo not drawn) | 87.1%
COc1ccc2c(c1)O[C@H]1c3ccc(O)cc3OC[C@@H]21 | 96.6%
C/C=C/c1ccc(OC)cc1 | 93.6%
NC(Cc1c[nH]c2ccccc12)C(=O)O (racemic) | 92.6%
COc1c2ccoc2c(OCC=C(C)C)c2oc(=O)ccc12 | 122%

Set 4
Structure (SMILES): COc1cc(Nc2c(C#N)cnc3cc(OCCCN4CCN(C)CC4)c(OC)cc23)c(Cl)cc1Cl
Read-out: enzyme activity
Action: inhibitor
Concentration: 0.5 µM
Baseline: control
target | remaining activity
HIPK4 (Homo sapiens, UniProt Q8NE63) | 74.6%
BLK (Homo sapiens, UniProt P51451) | 20.7%
EPHA4 (Homo sapiens, UniProt P54764) | 27%
DYRK3 (Homo sapiens, UniProt O43781) | 91.8%
Cyclin-dependent kinase 1, with cyclin B (CDK1, Homo sapiens, UniProt P06493) | 95.9%
RPS6KA5 (Homo sapiens, UniProt O75582) | 90.8%
PDPK1 (Homo sapiens, UniProt O15530) | 89.8%
Cyclin-dependent kinase 6, with cyclin D3 (CDK6, Homo sapiens, UniProt Q00534) | 122%
STK17A (Homo sapiens, UniProt Q9UEE5) | 107%
PRKACG (Homo sapiens, UniProt P22612) | 99.2%
MAPKAPK3 (Homo sapiens, UniProt Q16644) | 98.2%
EPHB4 (Homo sapiens, UniProt P54760) | 12.5%
HIPK2 (Homo sapiens, UniProt Q9H2X6) | 89%
RPS6KA6 (Homo sapiens, UniProt Q9UK32) | 62%
PHKG1 (Homo sapiens, UniProt Q16816) | 52.1%
TSSK2 (Homo sapiens, UniProt Q96PF2) | 83.9%
SRMS (Homo sapiens, UniProt Q9H3Y6) | 90.6%
WNK3 (Homo sapiens, UniProt Q9BYP7) | 91.8%
STK16 (Homo sapiens, UniProt O75716) | 85.1%
MAP4K4 (Homo sapiens, UniProt O95819) | 1.03%
Cyclin-dependent kinase 4, with cyclin D3 (CDK4, Homo sapiens, UniProt P11802) | 103%
